Measured values of several laboratories.
Lines come from different studies, so protocols differ. Several values in a cell are separate wells, animals, samples, runs or records. Numbers after ± are the reported error.
USP3 ZnF-UBD domain: Ubiquitin carboxyl-terminal hydrolase 3, ZnF-UBD domain (USP3, Homo sapiens, UniProt Q9Y6I4)
UniProt Q9Y6I4, sequence (whole entry, looked up): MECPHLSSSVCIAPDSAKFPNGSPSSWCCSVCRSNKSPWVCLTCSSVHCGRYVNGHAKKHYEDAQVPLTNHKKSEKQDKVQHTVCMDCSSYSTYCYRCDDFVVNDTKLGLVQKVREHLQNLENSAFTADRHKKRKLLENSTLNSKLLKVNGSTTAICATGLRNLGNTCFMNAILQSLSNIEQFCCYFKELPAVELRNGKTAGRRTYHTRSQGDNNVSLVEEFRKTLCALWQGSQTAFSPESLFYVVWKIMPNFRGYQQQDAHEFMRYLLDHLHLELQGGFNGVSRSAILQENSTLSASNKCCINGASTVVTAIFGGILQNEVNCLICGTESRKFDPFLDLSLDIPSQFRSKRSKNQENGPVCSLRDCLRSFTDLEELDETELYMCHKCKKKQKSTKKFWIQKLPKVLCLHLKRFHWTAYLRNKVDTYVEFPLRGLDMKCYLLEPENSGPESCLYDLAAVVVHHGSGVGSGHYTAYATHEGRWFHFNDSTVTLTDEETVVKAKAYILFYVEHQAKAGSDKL

`CN(C)CCC(=O)Nc1ccc(C2CCCCC2)cc1` gave a hepatic clearance of 44 mL/min/kg (hepatocyte stability; cryopreserved rat hepatocytes; 1 µM).
Under “incidence alkaline phosphatase increase”, `CCO[C@H]1CCN(Cc2c(OC)cc(C)c3[nH]ccc23)[C@H](c2ccc(C(=O)O)cc2)C1` is recorded as 0% (PNH patients, active haemolysis; oral, 200 mg, treatment).
For `O=C(O)CCC(=O)O.[2H]C([2H])([2H])Oc1cc(C)c2[nH]ccc2c1CN1CC[C@@H](C2CC2)C[C@H]1c1ccc(C(=O)O)cc1`, “subjects with any TEAE” read 58.3% (healthy Chinese subjects; 200 mg, single ascending dose).
`N#Cc1ccc2c(c1)[C@H]1CCCN(C(=O)c3ccc4[nH]cnc4c3)[C@H]1C2` — result for “cortisol level change”: -145 nmol/L (human; 160 mg, day 15; reference: baseline).
`CC(C)(C)c1ccc(O)c(CN(Cc2cc(C(C)(C)C)ccc2O)C2CCC(NC(N)=O)CC2)c1` (centres unmarked) gave a recovery of 93.8 ± 3.81% (human liver microsomes; 5 ng/mL, 24 h, 25 °C, short-term storage).
For `O=C(c1ccc(C2CCCCC2)cc1)N1CC(O)C1`, the hepatic clearance was 50 mL/min/kg (liver microsome stability; rat liver microsomes; 1 µM).
The MRT(0-inf) of `c1ccc(-c2nc(N3CCC(c4ccccn4)C3)c3ccccc3n2)nc1` (centres unmarked) is reported as 3.2 h (female Balb/c mice, plasma; intravenous, 2 mg/kg, mean, with: ABT 2 h prior).
`COc1ccnc(C(=O)O)c1O` gave a KFoc of 8870 mL/g (soil adsorption; tested soils; geometric mean).
With `CNCc1ccc(-c2[nH]c3cc(F)cc4c3c2CCNC4=O)cc1` the dysgeusia incidence was 3.8% (human patients; oral, 600 mg twice daily, grade 2).
With `NC(=O)CCNC(=O)c1ccc(C2CCCCC2)cc1` the hepatic clearance was 76 mL/min/kg (liver microsome stability; mouse liver microsomes; 1 µM).
Under “diastolic blood pressure”, `CCN1/C(=C/C(C)=O)Sc2ccc(F)cc21` is recorded as 79 ± 3 mmHg (cynomolgus monkey; oral, 10 mg/kg, 24 h post-dose).
`CNC(=O)c1ccc(-c2cnc3ncc(Cc4ccc5ncccc5c4)n3n2)cc1F` has an unbound fraction of 0.033 (ultrafiltration; human, plasma; oral, 200 mg, 3 h post-dose, geometric mean).
Under “change from baseline”, `CCCCOC(=O)N1CCN(C(=O)[C@H](CP(=O)(O)O)NC(=O)c2cc(N3CC[C@H](OC)C3)nc(-c3ccccc3)n2)CC1` is recorded as 0.2 ± 2.2 mmol/L (item: Chloride; human, blood; 8 mg, 24 h).
`C#C[C@]1(O)CC[C@H]2[C@@H]3CCC4=CC(=O)CC[C@@H]4[C@H]3CC[C@@]21C`: “Cmin geometric mean” 0.17 ng/mL (HIV-infected women on protease inhibitor, serum; oral, 0.35 mg, steady state).
`Cc1cc(Nc2ccc(S(F)(F)(F)(F)F)cc2)n2nc(C(C)(F)F)nc2n1`: “adverse event Stomatitis” 0% (Plasmodium vivax malaria patients; oral, 400 mg).
For `CN[C@H](CC(C)C)C(=O)N[C@H]1C(=O)N[C@@H](CC(N)=O)C(=O)N[C@H]2C(=O)N[C@H]3C(=O)N[C@H](C(=O)N[C@H](C(=O)O)c4cc(O)cc(O)c4-c4cc3ccc4O)[C@H](O)c3ccc(c(Cl)c3)Oc3cc2cc(c3O[C@@H]2O[C@H](CO)[C@@H](O)[C@H](O)[C@H]2O[C@H]2C[C@](C)(N)[C@H](O)[C@H](C)O2)Oc2ccc(cc2Cl)[C@H]1O`, serum concentration read “not detected” (guinea pig, serum; local, 10 mg/mL, poloxamer 407 hydrogel).
For `C=CC[C@@H]1/C=C(\C)C[C@H](C)C[C@H](OC)[C@H]2O[C@@](O)(C(=O)C(=O)N3CCCC[C@H]3C(=O)O[C@H](/C(C)=C/[C@@H]3CC[C@@H](O)[C@H](OC)C3)[C@H](C)[C@@H](O)CC1=O)[C@H](C)C[C@@H]2OC`, “trough blood level” read 3 ± 0.7 µg/L (LC-MS/MS; rat, whole blood; intraperitoneal, 0.5 mg/kg/day, 28 days).
`Cn1nc2c(=O)n(C3CC3)cnc2c1[C@](O)(c1cnc(C(F)(F)F)c(Cl)c1)C(F)(F)F` gave an AUC(0-96 h) of 303 µM·h (humanized SCID mice, blood; 10 mg/kg once daily, 6 days, infected).
`CCOc1c([C@H](C)n2nc(C)c3c(N)ncnc32)cc(Cl)c(F)c1[C@@H]1CNC(=O)C1` gave an ECG observations of 100% (item: QTcF change ≤30 ms; previously treated B-cell malignancy; oral, 45 mg once daily, overall population; reference: baseline).
`O=C(O)CSc1nnc(NC(=O)COc2ccccc2)s1` gave a Kd of 219 µM (USP3 ZnF-UBD domain).
For `C[C@@H](Nc1cc(F)cc(F)c1)c1cc(C(=O)N(C)C)cc2c(=O)cc(N3CCOCC3)oc12`, “dose reduction due to AE” read 25% (advanced solid tumour patients; oral, 30 mg twice daily, continuous monotherapy).
`CC(C)C[C@H](N)C(=O)N[C@@H](Cc1c[nH]c2ccccc12)C(=O)N[C@@H](Cc1c[nH]c2ccccc12)C(=O)N[C@@H](CCCNC(=N)N)C(=O)N[C@@H](Cc1c[nH]c2ccccc12)C(=O)N[C@@H](Cc1c[nH]c2ccccc12)C(=O)N[C@@H](CCCNC(=N)N)C(=O)N[C@@H](Cc1c[nH]c2ccccc12)C(=O)N[C@@H](CCCNC(=N)N)C(=O)O` gave a beta-sheet content of 18.9% (circular dichroism; 10 mM PBS).
Under “CD3+ T cell count change”, `Cn1cc(Nc2nccc(-c3ccc4c(c3)CN(C3COC3)CC[C@H]4NC(=O)c3cn(C(C)(C)C)nn3)n2)cn1` is recorded as -1.42% (human, whole blood; 150 mg twice daily, day 14; reference: pre-dose baseline).
For `Cc1cnc(N2CC3(CCOCC3)C2)c(C(=O)Nc2ccc(C(=O)N3CCc4cc(C(=O)Nc5c(C)cccc5F)sc4-c4ccccc43)cc2)c1`, the fu was 0.01 (rat plasma).
`O=C(O)CCc1ccccc1OCc1ccccn1` has a Kd of 49.5 µM (USP3 ZnF-UBD domain).
For `N#CCC(=O)Nc1ccc([C@H]2[C@@H](F)[C@@H](F)C[C@@H](F)[C@H]2F)cc1`, the hepatic clearance was 25 mL/min/kg (liver microsome stability; mouse liver microsomes; 1 µM).
With `CCN1CCN(Cc2ccc(NC(=O)c3ccc(C)c(NC(=O)c4cncc(-c5cccs5)c4)c3)cc2C(F)(F)F)CC1` the plasma concentration was 316 ng/mL and 285 ng/mL and 381 ng/mL (LC-MS/MS; C57BL/6 mouse, plasma; intraperitoneal, 10 mg/kg single dose, 1 h).
`O=C(NCCc1cccnc1)c1ccc([C@H]2[C@@H](F)[C@@H](F)C[C@@H](F)[C@H]2F)cc1` gave a hepatic clearance of 27 mL/min/kg (liver microsome stability; cynomolgus liver microsomes; 1 µM).
`Cc1ccc([C@@H]2O[C@H](CO)[C@@H](O)[C@H](O)[C@H]2O)cc1Cc1ccc(-c2ccc(F)cc2)s1` — result for “urinary chloride excretion change”: 1.33 mEq (Japanese type 2 diabetes patients; 100 mg, day 15, 24 h urine collection; reference: baseline).
For `CN(C(=O)C(C)(C)c1cc(C(F)(F)F)cc(C(F)(F)F)c1)c1cnc(N2C[C@H]3COCCN3C[C@H]2CO)cc1-c1ccc(F)cc1[14CH3]`, the pathway contribution was 60% (human liver microsomes; pH 7.4, formation of M30/34).
With `O=C(N[C@H](Cc1c[nH]c2ccccc12)C(=O)Nc1ccncc1)c1ccc(-c2cc(C(F)(F)F)ccc2F)cc1F` the concentration was 10.3 µM (Swiss Webster mouse, female, plasma; oral, 50 mg/kg, 2 h, 20% Kolliphor vehicle).
The remaining compound of `CC(C)Cn1cnc2c(N)nc3ccccc3c21` is reported as 3.5% (C57BL/6J mice, male, beta-naphthoflavone-treated, liver microsomes; 1 µM, 30 min).
`CSCC[C@H](NC(=O)[C@@H](N)CCSC)C(=O)N[C@@H](CCCNC(=N)N)C(=O)N[C@@H](Cc1c[nH]c2ccccc12)C(=O)N[C@@H](CO)C(=O)N[C@@H](CCCNC(=N)N)C(=O)N[C@@H](CCCCN)C(=O)N[C@@H](CCSC)C(=O)N1CCC[C@H]1C(=O)N[C@@H](CS)C(=O)N[C@H](C(=O)N[C@@H](CO)C(N)=O)C(C)C` has a remaining activity of 3 ± 1% (12G5 competition, SUP-T1 cells; human plasma; 20 µM, 2 h, 37 °C).
`O=Cc1c(O)cc(C(F)(F)F)cc1C(F)(F)F`: “degradation rate constant” 0 h⁻¹ (chemical stability, HPLC-MS; borate buffered saline; pH 10.2, no N-acetyl-lysine).
Under “treatment-emergent adverse events”, `O=C(Nc1nc2cccc(-c3ccc(CN4CCS(=O)(=O)CC4)cc3)n2n1)C1CC1` is recorded as 0% (item: non-cardiac chest pain; human rheumatoid arthritis patients; oral, 150 mg once daily, 4 weeks, regardless of relatedness).
Under “subjects with adverse event”, `CC(C)(C(=O)N1CCOc2c(C#N)cncc2C1)C(F)F` is recorded as 25% (item: contact dermatitis; human; oral, 20 mg twice daily, 14 days, multiple ascending dose).
`NC1(C(=O)N[C@@H](CCO)c2ccc(Cl)cc2)CCN(c2nc[nH]c3nccc2-3)CC1` — result for “incidence of maculopapular rash”: 40% (metastatic CRPC patients; 480 mg b.i.d., any grade, treatment-related, with: enzalutamide 160 mg daily).
For `CN(CCCN1CCN(C(=O)CN2CCN(CC(=O)[O-])CCN(CC(=O)[O-])CCN(CC(=O)[O-])CC2)CC1)c1ccc2nccc(C(=O)NCC(=O)N3CC(F)(F)C[C@H]3C#N)c2c1.[68Ga+3]`, the uptake was 0.6 ± 0.1 %IA/g (mice, HT-1080.hFAP and HT-1080 wild-type xenografts, lung; iv, 500 pmol, 1 h post injection).
`Cl.N=C(CC(O)c1cc2c(F)cc(F)cc2c2cc(C(F)(F)F)ccc12)Nc1ccc(F)c(F)c1` (centres unmarked) has a degradation of 37.8% (human plasma; 50 ng/mL, 24 h, 37 °C).
Under “subjects with Paraesthesia”, `C[C@H]1CN(C(=O)CC#N)[C@]12CCN(c1ncnc3[nH]ccc13)C2` is recorded as 0% (healthy human; oral, 3 mg single).
For `CN1CC(=O)NC1=N`, “serum protein binding” read 13 ± 7% (ultrafiltration; normal rat serum; 37 °C).
`Cn1cncc1-c1c(F)cncc1NC(=O)c1c(N)nn2cc(F)cnc12` gave a Vp/F of 136 L (population PK model; patients with solid tumours, plasma; oral).
`O=C(COc1ccc(Cl)cc1)NC12CC(c3nnc([C@H]4C[C@@H](OC(F)(F)F)C4)o3)(C1)C2` — result for “participants with headache”: 42.9% (human both sexes; oral, 100 mg once daily, 14 days).
`CN(CCC#N)C(=O)c1ccc([C@H]2[C@@H](F)[C@@H](F)C[C@@H](F)[C@H]2F)cc1` gave a hepatic clearance of 7.3 mL/min/kg (liver microsome stability; dog liver microsomes; 1 µM).
Under “participants with TEAE”, `Cc1ccc(Sc2ccccc2N2CCNCC2)c(C)c1` is recorded as 0% (item: blood creatine phosphokinase increased; healthy adult men; oral, 10 mg daily, 12 days).
The hepatic clearance of `CN1CCN(C(=O)c2ccc([C@H]3[C@@H](F)[C@@H](F)C[C@@H](F)[C@H]3F)cc2)CC1` is reported as 6.2 mL/min/kg (hepatocyte stability; cryopreserved human hepatocytes; 1 µM).
`Cc1ccc(CCC(=O)Nc2nnc(S(N)(=O)=O)s2)cc1`: “unbound plasma concentration” 0.043 ng/mL (BALB/c mouse, male, plasma; oral, 20 mg/kg, 4 h).
